Published values from different studies.

With `CC[C@H](C)[C@@H]1NC(=O)[C@H](Cc2ccc(O)cc2)NC(=O)[C@@H](N)CSSC[C@@H](C(=O)N2CCC[C@H]2C(=O)N[C@@H](CCCCNC(=O)COCCOCCNC(=O)COCCOCCNC(=O)CC[C@H](NC(=O)CC[C@H](NC(=O)CCCCCCCCCCCCCCCCC(=O)O)C(=O)O)C(=O)O)C(=O)NCC(N)=O)NC(=O)[C@H](CC(N)=O)NC(=O)[C@H](CCC(N)=O)NC1=O` the Tmax was 1 to 4 h (C57BL/6 mouse, plasma; intraperitoneal, 1 mg/kg, single dose).
`CS(C)(=O)=Nc1ccc(-c2ccc(-c3nc4cc(O[C@@H]5CO[C@H]6[C@@H]5OC[C@H]6O)[nH]c4cc3F)cc2)cc1` gave a Tmax of 2 h (female C57BL/6 mouse, plasma; oral, 10 mg/kg).
`CC(C)[C@H]1NC(=O)C[C@H]2/C=C/CCSSC[C@@H](NC1=O)C(=O)N[C@H](Cc1cccc3ccccc13)C(=O)NCC(=O)O2` gave a Tmax of 0.25 h (nude mouse, blood; oral, 12 mg/kg).
The Tmax of `O=c1cc(-c2ccccc2)oc2c(Br)c(O)c(O)c(O)c12` is reported as 2 h (C57BL/6 mouse, plasma; oral, 50 mg/kg, single dose).
With `CC[C@H](C)[C@H](NC(=O)CNC(=O)[C@@H](NC(=O)[C@H](Cc1ccc(O)cc1)NC(=O)[C@@H](NC(=O)[C@H](CO)NC(=O)[C@@H](NC(=O)[C@H](C)NC(=O)[C@@H]1CCCN1C(=O)[C@@H](NC(=O)[C@H](Cc1ccccc1)NC(=O)[C@H](CCCCN)NC(=O)[C@H](CCC(=O)O)NC(=O)[C@H](Cc1ccc(O)cc1)NC(=O)[C@H](CC(C)C)NC(=O)[C@H](CC(=O)O)NC(=O)[C@H](CCCNC(=N)N)NC(=O)[C@H](CC(C)C)NC(=O)[C@H](CCCCN)NC(=O)[C@H](CCC(=O)O)NC(=O)[C@H](Cc1ccccc1)NC(=O)[C@@H](NC(=O)[C@H](CCC(=O)O)NC(=O)[C@H](CCCCN)NC(=O)[C@H](CC(C)C)NC(=O)[C@H](Cc1ccc(O)cc1)NC(=O)[C@@H](N)CC(=O)O)C(C)C)[C@@H](C)O)C(C)C)[C@@H](C)O)[C@@H](C)O)C(=O)N[C@@H](Cc1ccccc1)C(=O)N[C@H](C(=O)N[C@@H](CC(=O)O)C(=O)N[C@@H](CCC(N)=O)C(=O)N[C@H](C(=O)N[C@@H](CC(C)C)C(=O)N[C@@H](CO)C(=O)N[C@H](C(=O)N[C@@H](CC(C)C)C(=O)N[C@@H](CCCCN)C(=O)NCC(=O)N[C@@H](CCC(=O)O)C(=O)N[C@@H](CCC(=O)O)C(=O)O)C(C)C)C(C)C)[C@@H](C)O` the Tmax was 3 h (female C57BL/6 mouse, plasma; subcutaneous, single dose).
The Tmax of `CSCC[C@H](NC(=O)CNC(=O)[C@H](CC(=O)O)NC(=O)[C@@H](NC(=O)[C@@H](NC(=O)[C@@H](NC(=O)CNC(=O)[C@H](CCC(=O)O)NC(=O)[C@H](CCSC)NC(=O)[C@H](CC(=O)O)NC(=O)[C@H](C)NC(=O)[C@H](C)NC(=O)[C@@H](NC(=O)[C@H](CO)NC(=O)[C@@H](N)CC(C)C)[C@@H](C)O)C(C)C)C(C)C)[C@@H](C)O)C(=O)N[C@@H](C)C(=O)N[C@@H](CO)C(=O)NCC(=O)N[C@@H](CC(C)C)C(=O)N[C@@H](CC(=O)O)C(=O)N[C@@H](CCCCN)C(=O)N[C@@H](CC(=O)O)C(=O)N[C@@H](Cc1ccc(O)cc1)C(=O)N[C@@H](CC(C)C)C(=O)N[C@@H](CCCCN)C(=O)N1CCC[C@H]1C(=O)N[C@@H](CC(=O)O)C(=O)N[C@@H](CC(=O)O)C(=O)O` is reported as 0.0333 h (male CD-1 mouse, serum; intravenous, 480 mg/kg, single dose).
The Tmax of `C/C(=N\OCCCN1CCCCC1)c1ccc(C(F)(F)F)cc1` is reported as 0.75 h (mouse, plasma; oral, 10 mg/kg).
For `CCCCCCCC(=O)OC[C@H](NC(=O)[C@H](CO)NC(=O)CN)C(=O)N[C@@H](Cc1ccccc1)C(=O)N[C@@H](CC(C)C)C(=O)N[C@@H](CO)C(=O)N1CCC[C@H]1C(=O)N[C@@H](CCC(=O)O)C(=O)N[C@@H](Cc1cnc[nH]1)C(=O)N[C@@H](CCC(N)=O)C(=O)N[C@@H](CCCNC(=N)N)C(=O)N[C@H](C(=O)N[C@@H](CCC(N)=O)C(=O)N[C@@H](CCC(N)=O)C(=O)N[C@@H](CCCNC(=N)N)C(=O)N[C@@H](CCCCN)C(=O)N[C@@H](CCC(=O)O)C(=O)N[C@@H](CO)C(=O)N[C@@H](CCCCN)C(=O)N[C@@H](CCCCN)C(=O)N1CCC[C@H]1C(=O)N1CCC[C@H]1C(=O)N[C@@H](C)C(=O)N[C@@H](CCCCN)C(=O)N[C@@H](CC(C)C)C(=O)N[C@@H](CCC(N)=O)C(=O)N1CCC[C@H]1C(=O)N[C@@H](CCCNC(=N)N)C(=O)O)C(C)C`, the Tmax was 0.0833 h (mouse, plasma; intraperitoneal, 7.2 mg/kg).
The Tmax of `C[C@H](CCC(=O)N[C@@H](CCCCNC(=O)C(F)(F)F)C(=O)O)[C@H]1CC[C@H]2[C@@H]3[C@H](O)C[C@@H]4C[C@H](O)CC[C@]4(C)[C@H]3C[C@H](O)[C@]12C` is reported as 5 h (mouse, plasma; oral, 50 mg/kg).
`CCCCCCCC(=O)NC[C@H](NC(=O)[C@H](CO)NC(=O)CN)C(=O)N[C@@H](Cc1ccccc1)C(=O)N[C@@H](CC(C)C)C(=O)N[C@@H](CO)C(=O)N1CCC[C@H]1C(=O)N[C@@H](CCC(=O)O)C(=O)N[C@@H](Cc1c[nH]cn1)C(=O)N[C@@H](CCC(N)=O)C(=O)N[C@@H](CCCNC(=N)N)C(=O)N[C@H](C(=O)N[C@@H](CCC(N)=O)C(=O)N[C@H](C(=O)N[C@@H](CCCNC(=N)N)C(=O)N1CCC[C@H]1C(=O)N1CCC[C@H]1C(=O)N[C@@H](Cc1c[nH]cn1)C(=O)N[C@@H](CCCCN)C(=O)N[C@@H](C)C(=O)N1CCC[C@H]1C(=O)N[C@@H](Cc1c[nH]cn1)C(=O)N[C@H](C(=O)N[C@H](C(=O)O)C(C)C)C(C)C)C(C)C)C(C)C` has a Tmax of 0.0833 h (mouse, plasma; intraperitoneal, 7.2 mg/kg).
For `COc1ccc(F)cc1S(=O)(=O)Nc1cnc2c(c1)C(=O)NCCO2`, the Tmax was 1 h (male C57BL/6 mouse, plasma; oral, 0.1 mg/kg, single dose).

For quick reference, copied from above:
The Tmax of `C/C(=N\OCCCN1CCCCC1)c1ccc(C(F)(F)F)cc1` is reported as 0.75 h (mouse, plasma; oral, 10 mg/kg).
